Measurements pooled from the literature.
Compare with care: the assays were run in different laboratories.
KIT D816H: Mast/stem cell growth factor receptor Kit (KIT, Homo sapiens, UniProt P10721, D816H)
KIT L576P: Mast/stem cell growth factor receptor Kit (KIT, Homo sapiens, UniProt P10721, L576P)
KIT: Mast/stem cell growth factor receptor Kit (KIT, Homo sapiens, UniProt P10721)

CNC1C[S+]2CC[S+]3CC[S+](C1)[Ru-4]321([N]=C=S)[n]2c3ccc(OC)cc3c3c4c(c5cc(F)c[n+]1c5c32)C(=O)NC4=O (centres unmarked)
remaining binding (KIT (Homo sapiens, UniProt P10721, A829P); KinomeScan; 0.1 µM; reference: untreated): 30%

CCN1CCN(Cc2ccc(C(=O)Nc3ccc(C)c(NCc4cnc5[nH]ccc5c4OC)c3)cc2C(F)(F)F)CC1
remaining binding (KIT (Homo sapiens, UniProt P10721, V559D); binding, competition with immobilised ligand; 1 µM): 0.1%

Cc1ccc(-c2c(/C=C(\C#N)C(=O)NC(C)C)n(CCCO)c3ncnc(N)c23)cc1
remaining binding (KIT D816H; cell-free assay, competition with immobilised ligand; 1 µM): 86%

CC(C)=CC1OC(C)(C)C2C=C3C(=O)C(Cl)=CC(O)C3C3C(O)C4OC4C(=O)C132 (centres unmarked)
remaining binding (Mast/stem cell growth factor receptor Kit, autoinhibited (KIT, Homo sapiens, UniProt P10721); cell-free assay, competition with immobilised ligand; 10 µM): 72%

C=CC(=O)N1CCc2ccc(-n3c(=O)ccc4cnc5ccc(-c6cnn(C)c6)cc5c43)cc21
remaining binding (KIT L576P; KINOMEscan; 1 µM; reference: DMSO control): 88%

CNC(=O)C1CCN(c2cc(C)c(F)cc2NC(=O)c2ccc(-c3cc(O)ccc3C)c(C)c2)CC1
remaining binding (KIT (Homo sapiens, UniProt P10721, T670I/V559D); binding, competition with immobilised ligand; 1 µM): 93%

COc1c(Cl)cccc1Nc1c(-c2ccncc2C#C[C@@]2(C)CCCN2C(=O)/C=C/CN(C)C)[nH]c2c1C(=O)NCC2
remaining binding (KIT (Homo sapiens, UniProt P10721, D816V); binding, competition with immobilised ligand; 3 µM): 98%

CN1CCN(Cc2ccc(NC(=O)c3cccc(C#Cc4cnc(N)c5ncccc45)c3)cc2C(F)(F)F)CC1
remaining binding (KIT; cell-free assay, competition with immobilised ligand; 0.5 µM): 0.1%

Nc1ncc2c(n1)-c1c([nH]c3ccc(C4=CCOCC4)cc13)CCC2
remaining binding (KIT L576P; binding, competition with immobilised ligand; 1 µM): 100%

C=CC(=O)N1CCCC(n2c(=O)c3ncccc3n(Cc3ccc(Oc4ccccc4)cc3)c2=O)C1 (centres unmarked)
remaining binding (KIT D816H; cell-free assay, competition with immobilised ligand; 1 µM): 74%

Cc1cnc2nc1Nc1cccc(c1)COC/C=C/COCc1cc(ccc1OCCN1CCOCC1)N2
remaining binding (KIT; binding; 0.1 µM): 23%
